Published values pooled from the literature.
Target: Mitogen-activated protein kinase 13 (MAPK13, Homo sapiens, UniProt O15264)

| SMILES | assay | conditions | how to read | measurement | result |
| --- | --- | --- | --- | --- | --- |
| CCN1CCN(Cc2ccc(C(=O)Nc3ccc(C)c(NCc4cnc5[nH]ccc5c4OC)c3)cc2C(F)(F)F)CC1 | binding, competition with immobilised ligand | 1 µM |  | remaining binding | 100% |
| COc1c(OCCCN2CCOCC2)ccc2c1N=C(NC(=O)c1cnc(N)nc1)N1CCN=C21 | kinase activity, inhibitor | 1 µM | reference: untreated control | remaining activity | 113% |
| Nc1ncc(-c2cc(-c3cnn(CC(F)(F)F)c3)ncc2F)nc1C(=O)NC1CNCC(F)C1 (stereo not shown) | enzyme activity | 1 µM | reference: DMSO control | remaining activity | 99.6% |
| COc1cc(Nc2nc(C)cc(-c3cnn4nc(OC)ccc34)n2)cc(C(F)(F)F)c1 | KINOMEscan | 1 µM, p38-delta | reference: DMSO | remaining binding | 95% |
| CNC1C[S+]2CC[S+]3CC[S+](C1)[Ru-4]321([N]=C=S)[n]2c3ccc(OC)cc3c3c4c(c5cc(F)c[n+]1c5c32)C(=O)NC4=O (stereo not shown) | KinomeScan | 0.1 µM | reference: untreated | remaining binding | 49% |
| Cc1cnc2nc1Nc1cccc(c1)COC/C=C/COCc1cc(ccc1OCCN1CCOCC1)N2 | binding, competition with immobilised ligand | 0.1 µM |  | remaining binding | 88% |
| CN1CC[C@@H](COc2cnc(C#N)cc2-c2ccn3nc(NC(=O)C4CC4)cc3c2)C1 | enzyme activity, inhibitor | 1 µM |  | inhibition | -1% |
| Cc1cccc(O[C@H]2CCC[C@@H](C(C)CNCc3ccncc3)C2)c1 (relative stereo) | enzyme activity, inhibitor | 1 µM |  | inhibition | -1% |
| COc1c(Cl)cccc1Nc1c(-c2ccncc2C#C[C@@]2(C)CCCN2C(=O)/C=C/CN(C)C)[nH]c2c1C(=O)NCC2 | binding, competition with immobilised ligand | 3 µM |  | remaining binding | 94% |
| Cc1cccc(-c2ccc3nc(NC(=O)C4CCOCC4)nn3c2)c1 | enzyme activity, Dundee kinase panel | 10 µM |  | remaining activity | 75% |
| Nc1ncc2c(n1)-c1c([nH]c3ccc(C4=CCOCC4)cc13)CCC2 | binding, competition with immobilised ligand | 1 µM |  | remaining binding | 100% |
| C=CC(=O)Nc1cccc(-c2cnc3[nH]cc(C(=O)NC(C)(C)C)c3n2)c1 | enzyme activity, inhibitor | 0.1 µM |  | inhibition | 3% |
| NC(=O)[C@@H](O)C[C@H]1CCc2sc3ncnc(O[C@H]4CC[C@H](N5CCOCC5)CC4)c3c21 | enzyme activity, inhibitor | 10 µM |  | inhibition | 0% |
| Cc1cccc(-c2ccc3nc(NC(=O)C4CCCCC4)nn3c2)c1 | enzyme activity, Dundee kinase panel | 10 µM |  | remaining activity | 78% |
| Nc1nc(Nc2ccccc2)sc1C(=O)c1ccccc1 | enzyme activity, inhibitor | 10 µM |  | remaining activity | 56% |
| C=CC(=O)N1CCc2ccc(-n3c(=O)ccc4cnc5ccc(-c6cnn(C)c6)cc5c43)cc21 | KINOMEscan | 1 µM | reference: DMSO control | remaining binding | 96% |
